Measurements collected from several papers.
Each line is one published result; not all experiments were run side by side. Numbers after ± are the reported error.
CSNK2A2: Casein kinase II subunit alpha' (CSNK2A2, Homo sapiens, UniProt P19784)
MYLK: Myosin light chain kinase, smooth muscle (MYLK, Homo sapiens, UniProt Q15746)
DCLRE1A: DNA cross-link repair 1A protein (DCLRE1A, Homo sapiens, UniProt Q6PJP8)

Compound	tested on	assay	test system	setting	scale	quantity	result
COc1cc(F)ccc1-c1ncnc(Nc2cccc(C[S@](C)(=N)=O)c2)n1	CSNK2A2	kinase activity		10 µM, together with: 10 µM ATP		remaining activity	83%
N#CCC(=O)Nc1ccc([C@H]2[C@@H](F)[C@@H](F)C[C@@H](F)[C@H]2F)cc1		hepatocyte stability	cryopreserved rat hepatocytes	1 µM		hepatic clearance	11 mL/min/kg
C=CC(=O)N1CCC[C@@H](n2nc(-c3ccc(Oc4ccccc4)cc3)c3c(N)ncnc32)C1	Calcium/calmodulin-dependent protein kinase type 1 (CAMK1, Homo sapiens, UniProt Q14012)			10 µM		remaining activity	7.48%
Cc1cc(Nc2cc(N3CCN(C)CC3)nc(Sc3ccc(NC(=O)C4CC4)cc3)n2)[nH]n1	CSNK2A2	kinase activity, KinaseProfiler		0.03 µM, species human	baseline: control	remaining activity	101%
O=C(O)c1ccc(Nc2ncc3c(n2)-c2ccc(Cl)cc2C(c2c(F)cccc2F)=NC3)cc1	MKK6(h)	kinase activity		1 µM		remaining activity	94%
CNc1ncc2c(/C=C/C(=O)N3CCC(OC)CC3)nn(Cc3cccc(C(F)(F)F)c3)c2n1	SRSF protein kinase 3 (SRPK3, Homo sapiens, UniProt Q9UPE1)	kinase activity, inhibitor		1 µM	baseline: untreated control	remaining activity	114%
CN(CCC#N)C(=O)c1ccc([C@H]2[C@@H](F)[C@@H](F)C[C@@H](F)[C@H]2F)cc1		liver microsome stability	human liver microsomes	1 µM, without NADPH		hepatic clearance	3.9 mL/min/kg
O=C1NC(=O)/C(=C/c2ccc(-c3ccc(F)cc3O)o2)S1	MYLK	enzyme activity		10 µM		remaining activity	37%
COc1cccc2c1C(=O)c1c(O)c3c(c(O)c1C2=O)C[C@@](O)(C(C)=O)C[C@@H]3O[C@H]1C[C@H](N)[C@H](O)[C@H](C)O1	DCLRE1A	exonuclease activity, inhibitor, fluorescence HTS		10 µM, 80 min, together with: 8 nM 5P-FQ substrate		remaining activity	52.7%
NC/C(=C\F)COc1cccc(Cn2c(=S)[nH]c(=O)c3[nH]cnc32)c1	Peroxidasin homolog (PXDN, Homo sapiens, UniProt Q92626)	Amplex UltraRed		40 µM	baseline: control	remaining activity	13.7%
O=C(O)C1=CC(=C(c2ccc(O)c(C(=O)O)c2)c2ccc(O)c(C(=O)O)c2)C=CC1=O	DCLRE1A	exonuclease activity, inhibitor, fluorescence HTS		10 µM, 80 min, together with: 8 nM 5P-FQ substrate		remaining activity	16.9%
COc1cc(Nc2ncc3c(n2)-c2ccc(Cl)cc2C(c2c(F)cccc2OC)=NC3)ccc1C(=O)O	DYRK3	kinase activity		1 µM		remaining activity	99%
O=C1c2c(O)ccc(O)c2C(=O)c2c(NCCNCCO)ccc(NCCNCCO)c21	DCLRE1A	exonuclease activity, inhibitor, fluorescence HTS		10 µM, 80 min, together with: 8 nM 5P-FQ substrate		remaining activity	42.7%
COc1cc(N2CCN(C)CC2)ccc1Nc1nc(N)n(C(=O)NCc2c(Cl)cccc2Cl)n1	Mitogen-activated protein kinase kinase kinase 19 (MAP3K19, Homo sapiens, UniProt Q56UN5)	enzyme activity		10 µM	baseline: control	remaining activity	0.95%
CCCCC/C=C/C=C/C(=O)NCC(C)C	DCLRE1A	exonuclease activity, inhibitor, fluorescence HTS		10 µM, 80 min, together with: 8 nM 5P-FQ substrate	baseline: high and low controls	remaining activity	42.8%
COc1cc(-c2cncc3c2CN(C)Cc2cc(N4CCNCC4)ccc2-3)cc(OC)c1OC	MYLK	kinase activity		1 µM, human enzyme, together with: ATP 10 µM	baseline: DMSO control	remaining activity	102%
[H]/N=C(\N/C(=N/[H])NCCCCCCNC(=N)NC(=N)Nc1ccc(Cl)cc1)Nc1ccc(Cl)cc1	DCLRE1A	exonuclease activity, inhibitor, fluorescence HTS		10 µM, 80 min, together with: 8 nM 5P-FQ substrate		remaining activity	53.1%
COc1ccc(F)cc1C(=O)NCc1ccc(-c2nn([C@@H](C)C(F)(F)F)c(N)c2C(N)=O)cc1	Serine/threonine-protein kinase A-Raf (ARAF, Homo sapiens, UniProt P10398)	kinase activity, inhibitor, HotSpot radiometric		100 nM, together with: ATP 10 µM		remaining activity	98 ± 2.3%

Excerpt of the above:
Compound	tested on	assay	test system	setting	scale	quantity	result
NC/C(=C\F)COc1cccc(Cn2c(=S)[nH]c(=O)c3[nH]cnc32)c1	Peroxidasin homolog (PXDN, Homo sapiens, UniProt Q92626)	Amplex UltraRed		40 µM	baseline: control	remaining activity	13.7%
[H]/N=C(\N/C(=N/[H])NCCCCCCNC(=N)NC(=N)Nc1ccc(Cl)cc1)Nc1ccc(Cl)cc1	DCLRE1A	exonuclease activity, inhibitor, fluorescence HTS		10 µM, 80 min, together with: 8 nM 5P-FQ substrate		remaining activity	53.1%
